Published values from different studies.
Parts stem from different laboratories: compare values within a part only.

Sample 1
Target: Phosphate system positive regulatory protein PHO4, full length, GST-tagged (PHO4, Saccharomyces cerevisiae, UniProt P07270, residues 1-312)
Technique: competition protein-binding microarray
Molecule type: double-stranded DNA, one strand shown
Medium: in vitro
Concentration: 2 µM
Setting: whole 60-bp probe, lowest competitor level
Added: Cbf1 competitor, 0.05 µM
Direction: higher = stronger binding
All sequences stand within: … GTCTTGATTCGCTTGACGCTGCTG
Target sequence (chain): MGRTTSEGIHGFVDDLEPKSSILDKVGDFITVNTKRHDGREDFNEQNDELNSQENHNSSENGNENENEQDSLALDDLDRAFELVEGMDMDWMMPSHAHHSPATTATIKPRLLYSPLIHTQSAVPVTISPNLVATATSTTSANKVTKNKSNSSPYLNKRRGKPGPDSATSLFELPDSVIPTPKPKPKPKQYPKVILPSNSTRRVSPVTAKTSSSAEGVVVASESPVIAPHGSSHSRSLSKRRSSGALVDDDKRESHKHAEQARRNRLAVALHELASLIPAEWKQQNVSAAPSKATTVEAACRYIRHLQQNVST
The fluorescence intensity of `TCTCAATCTCCGTCCAATGTGACGCCCACTACGATT` is reported as 3740 a.u.
The fluorescence intensity of `TGCGCAACAACTTGATTTGTGGGTGTATGTCTAGAA` is reported as 4450 a.u.
`AAATTACTAAGTTTTCACGTGAGTTACCCCGTATGA` gave a fluorescence intensity of 10000 a.u.
With `AACCGCATCCCGTCCCACGTGACGGACGGCACCCAA` the fluorescence intensity was 16900 a.u.
With `TATTCACAGAGTTCTCATGTGACAGGTATTGATGAT` the fluorescence intensity was 7270 a.u.
`TGGGTAGTTATAAGAGGCGTGCTTTTTGGCCATCAA` gave a fluorescence intensity of 8030 a.u.
`CTTTCCCGATCTTGCGGCGTGGGTGTAGCACATTTG` has a fluorescence intensity of 9440 a.u.
For `CCTCCTATGCTGCGTCTCGTGGGTACTATGGCGTCG`, the fluorescence intensity was 9200 a.u.
For `CCAATTGCAAAATATCACCTGGGACGACTTCGTTGG`, the fluorescence intensity was 3640 a.u.
`AAAATATATCGCTAGCATGCGTGAGATATGGATAAG` has a fluorescence intensity of 8720 a.u.
`CGGGGTTAAGTTTGTATTGTGGGTGGCTTGCAGCAG` has a fluorescence intensity of 4360 a.u.
With `ATAAAACAACGGCCTCCCGTGCCGAATTACCTTCCT` the fluorescence intensity was 6470 a.u.
With `CGGGGTTAAGTTTTTCACGTGGAATGCTTGCAGCAG` the fluorescence intensity was 10000 a.u.
The fluorescence intensity of `TTGATTCAAGCTCCACACGTGAGTCGAATGAACCTG` is reported as 15400 a.u.
`TATACAGCTTTGCCAAGCGTGCGGAATAGGGAATAA` gave a fluorescence intensity of 6820 a.u.
`AGAGAAATATCGGAACGCATGCAGACCAAATTTATA` has a fluorescence intensity of 8970 a.u.
`TAGAGGTGCCATTGTCATGTTCAGATCCAAAGAAGG` gave a fluorescence intensity of 3890 a.u.
`CGTCCTAGTGATTGCGCTGTGGGTGCCATGAGGAAG` gave a fluorescence intensity of 6140 a.u.
With `CTTTCCCGATCTTGTCACAAGACTTTAGCACATTTG` the fluorescence intensity was 4620 a.u.
With `CGCAGTCGCAACCAACATGTGACGGATGCGAGCGAA` the fluorescence intensity was 8370 a.u.
For `TGCGCAACAACTTGAGCCGTGGGTGTATGTCTAGAA`, the fluorescence intensity was 5170 a.u.

Sample 2
Target: RNA binding protein fox-1 homolog 2, RRM domain, GST-SBP tag (RBFOX2, Homo sapiens, UniProt O43251-10, residues 100-194)
Technique: RNA Bind-n-Seq
Molecule type: RNA
Medium: in vitro
Concentration: 365 nM
Setting: natural RNA segment, single round, ends assumed
Baseline: no-protein control
Direction: higher = stronger binding
All sequences stand within: GGGAGUUCUACAGUCCGACGAUC … UGGAAUUCUCGGGUGCCAA
Residues (chain): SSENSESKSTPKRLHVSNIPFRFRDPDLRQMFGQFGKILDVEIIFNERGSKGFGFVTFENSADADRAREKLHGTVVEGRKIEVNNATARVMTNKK
`AGUGUUGAUAGAGCAGCAUAUUAGACAAACACACAGUUGUUAGUUUUCAGACAUUCGCUCACGGACAAUACCAUCUCAGCUUUGCCCUUGCUCCGUGUGUCCACUCCUGC`: “RBNS enrichment (R)” 1.23.
For `AUCUAAUUAACACAGCACAUUGUACUAAUGACUAGGAGUAGCAGCUUUUUCUUCUCUCCCUCUAUGAAUUCUUAUAAUGUCCCUUUUUCUGUAAGUUUUUGAGAGGCAAU`, “RBNS enrichment (R)” read 1.43.
`AUAACAUAAAUACCAUAAAAAGGAGGAAAUAAAGAUAAGUAAACAUCUCAUUUCUCAAAAAAAAAAAAUGAUGCCUGUGUUUAUGUACAAUUUAAAUGAUUACAGAGUGC` — result for “RBNS enrichment (R)”: 0.613.
Under “RBNS enrichment (R)”, `UACCAUGGGGAUCGAUAGGGUGGUUAGCCCUGCGCACUAGGUCCAGCCAAUCUGUGCUCUGGGCCUUGCCUCCCAGGCCACAGUCCUGCUCCCAACUUGUUUGUCCCUAG` is recorded as 0.366.
`CCCAGCUAGUCUAUCUGAGCUCUCGCCUCCAUCCUUGUUUUAAUCAUGCUUCUACAAGGUGAAGUGUGUUUGGGGAAACUGAGCUCUAACAAAAGCCGCGACAGCCACCA`: “RBNS enrichment (R)” 0.481.
`CUGGUGGCUAGUGCCUUCAUAUUAGAGCACCUUCUCUGAGGCUGAUUGGUGGGCAGGUAGGGAAGACAUUGAGCAGACAGUGUCCGCUCAGUUGUCCUUCCCUCCCUUCC` — result for “RBNS enrichment (R)”: 0.158.
For `UUUCCCUUUUUUUGUGGGGGAGGGUUGGUGGUAUAUUUUUCCCCUCUUUUUUCCUUCCUCUCCUACAUCUCCCUUUUCCCCCGAUCCAAGUUGUAGAUGGAAUAGAAGCC`, “RBNS enrichment (R)” read 0.533.
`UUCUGAGUUUUGUGGUGCUGUAGCGAUCUCUCAGCACCUAUCUCGAGCGAGGAGCUGAUGAGUCCCUUGCAGCCUCCAGUCUGACCCAGAGUGGCAGGUAUCCUGGCAUG`: “RBNS enrichment (R)” 1.1.
`UCAGUGGGUAGCUUGGGUUCCGCAUUGUGGGGUCAGUUCAAUGUCCAUAGUUCCUGCCUGCCAUCCUUCUGUGAGGGUCCAUUGCUGCUUGAUGGCCAUCUCUGCCUUUU` — result for “RBNS enrichment (R)”: 0.741.
`GACAAAUGAGUUGAUGGUCUAAAUUAUAAGAUUUGUGUCACAUUAUCUUGAUGCCAGUUUGCCAAAUCUGAUACUGUGAAAAAAUUUGAUAGCUUUUCUAAUGUCUGACU`: “RBNS enrichment (R)” 0.588.
For `AGAGCUGAUUUGAGGCCUCCUUCUGGGGCUGGGCUCUGCAGGCCAGGUGGGUGUGGCCUGUGUUUUCCCUUCUGUUCUUUCUGCCUGUACUGGAUCUGUUAUUUUCAGGG`, “RBNS enrichment (R)” read 0.753.
`UCACUAUGUGGCCCAGGCUGGUCUCAAACUUCUGGCCUUAAGUGAUGCUCCUGUCCUUGGCCUCCCAAAGUGCUGGGAUUACAGGUGUGAGCCACUGCACCCAGCCCACU` — result for “RBNS enrichment (R)”: 0.269.

Sample 3
Target: Histone acetyltransferase KAT6A, both winged helices, GST fusion (KAT6A, Homo sapiens, UniProt Q92794, residues 1-181)
Technique: protein binding microarray
Molecule type: double-stranded DNA, one strand shown
Medium: in vitro
Concentration: not given
Setting: 8-mer, flanks averaged, mean of 2 arrays, mostly near background
Baseline: not given
Direction: higher = stronger binding
Residues (chain): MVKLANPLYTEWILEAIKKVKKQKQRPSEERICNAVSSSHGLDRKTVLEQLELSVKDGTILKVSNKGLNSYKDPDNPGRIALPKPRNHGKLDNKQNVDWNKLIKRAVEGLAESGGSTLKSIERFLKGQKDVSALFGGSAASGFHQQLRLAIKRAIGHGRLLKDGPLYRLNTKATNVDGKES
The E-score of `CCATGTAC` is reported as -0.0842.
For `GCCTTAAC`, the E-score was -0.0687.
The E-score of `AGGATTGA` is reported as -0.201.
With `AAGTGCCC` the E-score was -0.129.
With `AAGACCAC` the E-score was -0.138.
With `GGTTGCCA` the E-score was 0.00592.
`AGTTACCC` gave an E-score of -0.142.
`CCTAGGAC` gave an E-score of -0.269.
`AGAGCTGA` gave an E-score of -0.246.
For `AAACGCGG`, the E-score was 0.211.
`CTACACGC` has an E-score of 0.001.
With `GTAAGCGA` the E-score was 0.0493.
`ACTCTGCC` has an E-score of -0.138.
`CAGTCTAA` has an E-score of -0.0456.
For `ATTTCTGA`, the E-score was -0.123.
With `ATTTCATA` the E-score was -0.0757.
The E-score of `GGGAAGGA` is reported as -0.101.
The E-score of `GCCACCTA` is reported as -0.0563.
With `ATCAACGG` the E-score was 0.181.
`CAGTTGTC` has an E-score of -0.106.
The E-score of `CATGCTTA` is reported as -0.0933.
`CGATCCCA` has an E-score of -0.0383.
For `ACACTGCC`, the E-score was 0.048.

Sample 4
Target: Ras GTPase-activating protein-binding protein 1, C-terminal RGG region (G3BP1, Homo sapiens, UniProt Q13283)
UniProt Q13283, sequence (whole entry, looked up): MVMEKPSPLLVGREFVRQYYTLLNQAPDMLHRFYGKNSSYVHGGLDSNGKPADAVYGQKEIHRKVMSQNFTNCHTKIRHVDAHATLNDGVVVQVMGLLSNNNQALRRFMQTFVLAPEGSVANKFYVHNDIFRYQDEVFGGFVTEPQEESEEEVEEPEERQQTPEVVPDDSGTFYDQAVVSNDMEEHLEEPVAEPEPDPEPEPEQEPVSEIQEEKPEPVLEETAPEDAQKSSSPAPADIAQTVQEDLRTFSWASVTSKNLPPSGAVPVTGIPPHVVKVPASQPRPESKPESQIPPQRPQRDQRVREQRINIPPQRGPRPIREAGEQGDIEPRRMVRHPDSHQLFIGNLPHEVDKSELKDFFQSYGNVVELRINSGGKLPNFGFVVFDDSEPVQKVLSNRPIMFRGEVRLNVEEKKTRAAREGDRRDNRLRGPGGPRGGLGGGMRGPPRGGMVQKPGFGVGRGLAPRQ
Technique: RNA Bind-n-Seq
Molecule type: RNA
Medium: in vitro
Concentration: 1 µM
Setting: whole 134-nt RNA, ends assumed
Added: 150 mM KCl
Baseline: input library
Direction: higher = stronger binding
All sequences stand within: GGGAGUUCUACAGUCCGACGAUC … UGGAAUUCUCGGGUGUCAAGG
The log2 enrichment of `CUCAAGUCCUGUGCUACACAUCGUAUGUACCGAAUCGGUUGGGUUGGGGUUGGGAAAGUAUUAUGUUACGCCGUUCGGAUCUGCACUUCC` is reported as 0.448.
For `CAAGUCCUGUGCUACACAUCGUAUGUACCGAAUCGGGAAAGGGGAAAGGGAAAGGAAAGUAUUAUGUUACGCCGUUCGGAUCUGCACUUC`, the log2 enrichment was -1.3.
For `CAAGUCCUGUGCUACACAUCGUAUGUACCGAAUCGGGCCCGGGGCCCGGCCCGGGGAAAGUAUUAUGUUACGCCGUUCGGAUCUGCACUU`, the log2 enrichment was -1.97.
For `GCAGGAAGUAAAAACAAAUGGAAAUGCUUCGGAUAGUGGCAGGGGUGGGGGUUGCUAAGGAACGGGUGGGAUGGGAGUGGGUAAAGAGUU`, the log2 enrichment was 1.77.
The log2 enrichment of `AAGUCCUGUGCUACACAUCGUAUGUACCGAAUCGGGUUUUUGGGUUUUUGGGUGGGAAAGUAUUAUGUUACGCCGUUCGGAUCUGCACUU` is reported as 0.171.
`UAACUUUAGAGGAGGAUCUGAUGGAUAUGGCAGUGGACGUGGAUUUGGGGAUGGCUAUAAUGGGUAUGGAGGAGGACCUGGAGGUUGCAA` gave a log2 enrichment of -0.905.
`CACAGACAACACGCACCCACACAGACACAGAGGGAAGGGGUUGGGAUGGGGACAGGGUGCACAGCAGGAAAGGGUAGGACCCCAGCCCCU` gave a log2 enrichment of -0.238.
`UCCUGUGCUACACAUCGUAUGUACCGAAUCGGAAAAAAAGGUUUUUUUGGUUUUUUUGGAAAGUAUUAUGUUACGCCGUUCGGAUCUGCA` has a log2 enrichment of -1.26.
For `AGUCCUGUGCUACACAUCGUAUGUACCGAAUCGGGGUUUUUGGUUUUUGGUUUUUGGGAAAGUAUUAUGUUACGCCGUUCGGAUCUGCAC`, the log2 enrichment was -1.83.
With `AAGUCCUGUGCUACACAUCGUAUGUACCGAAUCGGAAAAGGGGAAAAGGAAAAGGGGAAAGUAUUAUGUUACGCCGUUCGGAUCUGCACU` the log2 enrichment was -1.06.
The log2 enrichment of `CUCAAGUCCUGUGCUACACAUCGUAUGUACCGAAUCGGAAAGGUUUUUGGAGGAAAGUAUUAUGUUACGCCGUUCGGAUCUGCACUUCCA` is reported as -1.24.
`GUCCUGUGCUACACAUCGUAUGUACCGAAUCAAACCCAAACCCCCCCAAAUUUUUAAAAAAGUAUUAUGUUACGCCGUUCGGAUCUGCAC` has a log2 enrichment of -0.843.
The log2 enrichment of `UCCUGUGCUACACAUCGUAUGUACCGAAUCGGGGUUUUUGGGGAAAAAGGGGUUUGGGGAAAGUAUUAUGUUACGCCGUUCGGAUCUGCA` is reported as 2.63.
With `CACAGACAACACGCACCCACACAGACACAGAGGGAAGGGGUUGGGAUGGGGACAGUGUGCACAGCAGGGCGGGGUAGGACCCCAGCCCCU` the log2 enrichment was -0.589.
